Experimental data from different studies.
Each numbered part is a random draw from the data of one study; scales do not carry over between parts.
UniProt P53355, sequence (whole entry, looked up): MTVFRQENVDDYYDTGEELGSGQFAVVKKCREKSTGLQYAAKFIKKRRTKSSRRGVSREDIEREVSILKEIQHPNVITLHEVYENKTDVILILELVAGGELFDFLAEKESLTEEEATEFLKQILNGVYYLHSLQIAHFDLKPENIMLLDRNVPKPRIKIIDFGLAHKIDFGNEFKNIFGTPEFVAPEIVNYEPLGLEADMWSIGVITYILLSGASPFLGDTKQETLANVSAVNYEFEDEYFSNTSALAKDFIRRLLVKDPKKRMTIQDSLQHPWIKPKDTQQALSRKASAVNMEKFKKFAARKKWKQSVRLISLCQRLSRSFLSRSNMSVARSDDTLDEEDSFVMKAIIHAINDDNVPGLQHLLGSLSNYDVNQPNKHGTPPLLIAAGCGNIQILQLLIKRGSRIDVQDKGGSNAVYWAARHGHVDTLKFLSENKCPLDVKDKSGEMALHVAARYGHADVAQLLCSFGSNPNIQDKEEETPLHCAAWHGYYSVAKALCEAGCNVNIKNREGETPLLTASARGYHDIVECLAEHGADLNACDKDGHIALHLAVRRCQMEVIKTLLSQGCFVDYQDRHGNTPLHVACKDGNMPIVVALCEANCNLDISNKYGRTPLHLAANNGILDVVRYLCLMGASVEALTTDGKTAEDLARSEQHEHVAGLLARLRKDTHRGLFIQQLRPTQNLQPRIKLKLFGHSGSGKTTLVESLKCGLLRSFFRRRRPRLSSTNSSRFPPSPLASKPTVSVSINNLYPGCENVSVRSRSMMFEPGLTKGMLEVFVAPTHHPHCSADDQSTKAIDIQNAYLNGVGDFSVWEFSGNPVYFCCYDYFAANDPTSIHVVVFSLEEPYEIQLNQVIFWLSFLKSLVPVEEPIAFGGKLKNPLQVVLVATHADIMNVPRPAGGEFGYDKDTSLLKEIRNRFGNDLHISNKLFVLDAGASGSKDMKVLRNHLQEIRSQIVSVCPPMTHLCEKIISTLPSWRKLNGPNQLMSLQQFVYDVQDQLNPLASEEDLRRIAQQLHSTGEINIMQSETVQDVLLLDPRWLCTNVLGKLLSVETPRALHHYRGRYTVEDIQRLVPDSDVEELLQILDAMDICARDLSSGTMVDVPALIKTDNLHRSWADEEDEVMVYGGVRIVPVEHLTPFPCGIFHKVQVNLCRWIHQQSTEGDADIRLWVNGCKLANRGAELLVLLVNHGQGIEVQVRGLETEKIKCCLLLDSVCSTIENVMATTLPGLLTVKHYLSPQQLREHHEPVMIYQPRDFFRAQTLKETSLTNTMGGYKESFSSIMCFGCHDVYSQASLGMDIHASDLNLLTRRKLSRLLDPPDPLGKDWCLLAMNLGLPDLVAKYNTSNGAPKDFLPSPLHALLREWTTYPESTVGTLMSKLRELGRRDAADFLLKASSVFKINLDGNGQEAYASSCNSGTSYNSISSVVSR
UniProt Q16659, sequence (whole entry, looked up): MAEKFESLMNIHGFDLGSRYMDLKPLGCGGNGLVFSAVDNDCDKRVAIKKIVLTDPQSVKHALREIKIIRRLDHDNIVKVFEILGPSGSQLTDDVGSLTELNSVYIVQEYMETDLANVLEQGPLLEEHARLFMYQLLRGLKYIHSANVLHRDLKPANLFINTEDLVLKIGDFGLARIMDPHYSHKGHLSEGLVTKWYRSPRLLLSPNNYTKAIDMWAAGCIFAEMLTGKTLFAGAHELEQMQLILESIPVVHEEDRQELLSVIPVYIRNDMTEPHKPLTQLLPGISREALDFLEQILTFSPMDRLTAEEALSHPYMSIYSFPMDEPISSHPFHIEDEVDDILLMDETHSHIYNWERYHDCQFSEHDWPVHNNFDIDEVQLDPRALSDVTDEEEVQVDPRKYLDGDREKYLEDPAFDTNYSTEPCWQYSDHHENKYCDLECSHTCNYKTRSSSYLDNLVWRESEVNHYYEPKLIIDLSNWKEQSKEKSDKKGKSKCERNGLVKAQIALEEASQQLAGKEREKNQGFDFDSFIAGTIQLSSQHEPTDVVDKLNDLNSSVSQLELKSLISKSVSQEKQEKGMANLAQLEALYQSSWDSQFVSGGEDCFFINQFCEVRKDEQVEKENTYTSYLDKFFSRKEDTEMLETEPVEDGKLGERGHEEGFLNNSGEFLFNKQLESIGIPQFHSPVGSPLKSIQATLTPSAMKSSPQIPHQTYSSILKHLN
UniProt Q8IVH8, sequence (whole entry, looked up): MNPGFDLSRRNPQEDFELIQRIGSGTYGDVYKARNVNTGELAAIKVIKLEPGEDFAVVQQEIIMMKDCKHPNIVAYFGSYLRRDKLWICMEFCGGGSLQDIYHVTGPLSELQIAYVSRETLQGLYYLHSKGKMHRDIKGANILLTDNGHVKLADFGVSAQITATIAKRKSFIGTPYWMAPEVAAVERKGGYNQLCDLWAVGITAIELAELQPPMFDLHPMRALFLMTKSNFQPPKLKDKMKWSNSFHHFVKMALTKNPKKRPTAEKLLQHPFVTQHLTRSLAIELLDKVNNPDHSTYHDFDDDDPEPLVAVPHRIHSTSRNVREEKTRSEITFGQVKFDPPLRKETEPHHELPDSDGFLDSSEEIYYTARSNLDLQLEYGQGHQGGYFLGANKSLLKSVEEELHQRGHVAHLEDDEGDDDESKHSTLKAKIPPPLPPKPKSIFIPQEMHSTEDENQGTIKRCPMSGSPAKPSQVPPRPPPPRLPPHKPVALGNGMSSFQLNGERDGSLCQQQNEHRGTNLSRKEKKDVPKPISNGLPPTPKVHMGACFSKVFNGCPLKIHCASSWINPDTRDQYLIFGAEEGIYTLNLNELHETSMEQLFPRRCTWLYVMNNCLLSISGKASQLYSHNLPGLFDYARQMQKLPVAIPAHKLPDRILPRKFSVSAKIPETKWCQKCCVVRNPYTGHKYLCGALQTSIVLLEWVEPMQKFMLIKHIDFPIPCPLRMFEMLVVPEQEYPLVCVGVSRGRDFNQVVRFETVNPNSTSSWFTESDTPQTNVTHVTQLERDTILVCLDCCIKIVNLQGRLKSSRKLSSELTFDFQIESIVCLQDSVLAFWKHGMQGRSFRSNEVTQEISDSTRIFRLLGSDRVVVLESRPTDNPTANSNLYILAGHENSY
UniProt O43318, sequence (whole entry, looked up): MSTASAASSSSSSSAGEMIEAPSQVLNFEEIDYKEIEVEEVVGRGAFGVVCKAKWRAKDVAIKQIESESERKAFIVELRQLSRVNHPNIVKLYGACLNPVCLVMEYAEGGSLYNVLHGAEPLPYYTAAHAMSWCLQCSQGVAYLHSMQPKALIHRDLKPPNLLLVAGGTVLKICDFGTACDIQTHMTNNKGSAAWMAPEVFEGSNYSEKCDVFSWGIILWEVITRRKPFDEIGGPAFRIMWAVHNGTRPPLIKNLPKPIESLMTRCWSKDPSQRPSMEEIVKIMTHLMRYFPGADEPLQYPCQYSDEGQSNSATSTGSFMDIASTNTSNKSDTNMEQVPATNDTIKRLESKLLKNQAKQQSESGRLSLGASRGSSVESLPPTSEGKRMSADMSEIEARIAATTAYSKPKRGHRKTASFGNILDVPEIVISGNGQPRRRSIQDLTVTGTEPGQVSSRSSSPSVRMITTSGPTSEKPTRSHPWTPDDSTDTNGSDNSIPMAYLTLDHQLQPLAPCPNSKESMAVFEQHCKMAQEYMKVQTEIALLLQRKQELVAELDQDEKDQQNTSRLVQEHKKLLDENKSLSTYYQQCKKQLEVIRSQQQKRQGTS
UniProt O43683, sequence (whole entry, looked up): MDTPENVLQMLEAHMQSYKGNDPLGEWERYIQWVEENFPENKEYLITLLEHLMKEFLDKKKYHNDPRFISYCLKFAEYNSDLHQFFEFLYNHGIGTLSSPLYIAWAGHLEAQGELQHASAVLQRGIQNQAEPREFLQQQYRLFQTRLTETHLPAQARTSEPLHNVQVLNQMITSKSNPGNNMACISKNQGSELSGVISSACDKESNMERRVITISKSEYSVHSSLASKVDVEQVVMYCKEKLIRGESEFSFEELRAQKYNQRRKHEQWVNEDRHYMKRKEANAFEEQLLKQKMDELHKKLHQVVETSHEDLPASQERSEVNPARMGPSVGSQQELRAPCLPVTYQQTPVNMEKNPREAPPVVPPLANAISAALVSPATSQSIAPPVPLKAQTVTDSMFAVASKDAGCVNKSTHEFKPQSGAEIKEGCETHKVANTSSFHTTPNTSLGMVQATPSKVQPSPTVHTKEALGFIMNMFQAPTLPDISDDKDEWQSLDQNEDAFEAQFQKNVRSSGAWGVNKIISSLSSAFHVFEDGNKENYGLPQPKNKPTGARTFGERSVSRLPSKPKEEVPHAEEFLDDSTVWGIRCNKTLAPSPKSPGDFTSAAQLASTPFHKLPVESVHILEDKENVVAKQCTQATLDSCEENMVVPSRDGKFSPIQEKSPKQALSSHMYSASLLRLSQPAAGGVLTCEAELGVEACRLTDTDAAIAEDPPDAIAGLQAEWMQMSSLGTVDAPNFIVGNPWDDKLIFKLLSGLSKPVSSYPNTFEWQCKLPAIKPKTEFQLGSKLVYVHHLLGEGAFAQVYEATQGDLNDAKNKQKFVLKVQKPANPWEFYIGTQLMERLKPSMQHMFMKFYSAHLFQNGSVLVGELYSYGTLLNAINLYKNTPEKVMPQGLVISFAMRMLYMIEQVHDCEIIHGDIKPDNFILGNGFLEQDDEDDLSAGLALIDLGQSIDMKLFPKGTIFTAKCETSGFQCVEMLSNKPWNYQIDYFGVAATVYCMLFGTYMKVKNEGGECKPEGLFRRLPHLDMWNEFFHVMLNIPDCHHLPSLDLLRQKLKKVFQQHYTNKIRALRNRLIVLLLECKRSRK
UniProt P11309, sequence (whole entry, looked up): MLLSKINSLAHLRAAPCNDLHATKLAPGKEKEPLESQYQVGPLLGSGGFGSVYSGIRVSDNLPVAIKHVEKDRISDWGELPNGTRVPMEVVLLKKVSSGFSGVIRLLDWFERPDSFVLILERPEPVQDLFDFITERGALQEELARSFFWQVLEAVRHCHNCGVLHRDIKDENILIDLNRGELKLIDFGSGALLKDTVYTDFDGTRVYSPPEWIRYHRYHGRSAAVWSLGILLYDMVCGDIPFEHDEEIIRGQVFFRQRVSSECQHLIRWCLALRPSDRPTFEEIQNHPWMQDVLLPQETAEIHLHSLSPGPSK

Block 1 — organism: Sarcocystis neurona; observed: parasite growth; concentration: 10 µM; time: 96 h; notes: second screen; relative to: untreated; quantity: log2 fold change
Structure (SMILES) = Nc1nc2c(ncn2CCC(CO)CO)c(=O)[nH]1; value = 0.42
Structure (SMILES) = C#C[C@]1(O)CC[C@H]2[C@@H]3CCc4cc(OC)ccc4[C@H]3CC[C@@]21C; value = 0.88
Structure (SMILES) = c1ccc(-c2ccc(C(c3ccccc3)n3ccnc3)cc2)cc1 (stereo not drawn); value = -0.63
Structure (SMILES) = NS(=O)(=O)c1cc2c(cc1Cl)N=CNS2(=O)=O; value = 0.16
Structure (SMILES) = CCOC(=O)N1CCC(=C2c3ccc(Cl)cc3CCc3cccnc32)CC1; value = 0.41
Structure (SMILES) = CN(C)CCC(c1ccc(Cl)cc1)c1ccccn1 (stereo not drawn); value = 0.17
Structure (SMILES) = C/C(=C\C(=O)OCCCCCCCCC(=O)O)C[C@@H]1OC[C@H](C[C@@H]2O[C@H]2[C@@H](C)[C@H](C)O)[C@@H](O)[C@H]1O; value = -0.06
Structure (SMILES) = C[C@@H]1C[C@H]2[C@@H]3C[C@H](F)C4=CC(=O)C(Cl)=C[C@]4(C)[C@@]3(F)[C@@H](O)C[C@]2(C)[C@@]1(O)C(=O)CO; value = 0.11
Structure (SMILES) = CC1=C(/C=C/C(C)=C/C=C/C(C)=C\C(=O)O)C(C)(C)CCC1; value = 0.61
Structure (SMILES) = CC(=O)NC[C@H]1CN(c2ccc(N3CCOCC3)c(F)c2)C(=O)O1; value = -0.11
Structure (SMILES) = COC(=O)C1=C(C)NC(C)=C(C(=O)OC(C)C)C1c1cccc2nonc12 (stereo not drawn); value = 0.75
Structure (SMILES) = CCCCNc1cc(C(=O)O)cc(S(N)(=O)=O)c1Oc1ccccc1; value = 0.34
Structure (SMILES) = Cc1onc(-c2ccccc2)c1-c1ccc(S(N)(=O)=O)cc1; value = 0.29
Structure (SMILES) = CCCN1C[C@H](CSC)C[C@@H]2c3cccc4[nH]cc(c34)C[C@H]21; value = 0.27
Structure (SMILES) = CCCCCCCCCCC[C@@H](C[C@@H]1OC(=O)[C@H]1CCCCCC)OC(=O)[C@H](CC(C)C)NC=O; value = -0.35
Structure (SMILES) = CC(=O)OCC(=O)[C@@]12OC3(CCCC3)O[C@@H]1C[C@H]1[C@@H]3CCC4=CC(=O)C=C[C@]4(C)[C@@]3(F)[C@@H](O)C[C@@]12C; value = 0.2

Block 2 — technique: competition with immobilised ligand; concentration: 1 µM; quantity: remaining binding
Structure (SMILES): O=S(=O)(NC1CCC(c2cc(F)ccc2F)(S(=O)(=O)c2ccc(Cl)cc2)CC1)C(F)(F)F (stereo not drawn)
target = Death-associated protein kinase 2 (DAPK2, Homo sapiens, UniProt Q9UIK4); observed = cell-free assay; value = 96%
target = Mitogen-activated protein kinase kinase kinase 7 (MAP3K7, Homo sapiens, UniProt O43318); observed = cell-free assay; value = 100%
target = Serine/threonine-protein kinase 17B (STK17B, Homo sapiens, UniProt O94768); observed = cell-free assay; value = 97%
target = Mitotic checkpoint serine/threonine-protein kinase BUB1 (BUB1, Homo sapiens, UniProt O43683); observed = cell-free assay; value = 100%
target = Mitogen-activated protein kinase 6 (MAPK6, Homo sapiens, UniProt Q16659); observed = cell-free assay; value = 100%
target = Cyclin-dependent kinase 4 (CDK4, Homo sapiens, UniProt P11802); observed = cell-free assay; value = 81%
target = Cyclin-dependent kinase 11B (CDK11B, Homo sapiens, UniProt P21127); observed = cell-free assay; value = 82%
target = Tyrosine-protein kinase Tec (TEC, Homo sapiens, UniProt P42680); observed = binding; value = 100%
target = Tyrosine-protein kinase SYK (SYK, Homo sapiens, UniProt P43405); observed = cell-free assay; value = 89%
target = Mitogen-activated protein kinase kinase kinase kinase 3 (MAP4K3, Homo sapiens, UniProt Q8IVH8); observed = cell-free assay; value = 100%
target = Serine/threonine-protein kinase MRCK alpha (CDC42BPA, Homo sapiens, UniProt Q5VT25); observed = cell-free assay; value = 91%
target = Ephrin type-A receptor 2 (EPHA2, Homo sapiens, UniProt P29317); observed = cell-free assay; value = 84%
target = Serine/threonine-protein kinase Sgk1 (SGK1, Homo sapiens, UniProt O00141); observed = cell-free assay; value = 83%
target = Death-associated protein kinase 1 (DAPK1, Homo sapiens, UniProt P53355); observed = cell-free assay; value = 95%
target = Tyrosine-protein kinase ABL1, non-phosphorylated (ABL1, Homo sapiens, UniProt P00519, T315I); observed = cell-free assay; value = 90%
target = Receptor-type tyrosine-protein kinase FLT3 (FLT3, Homo sapiens, UniProt P36888, R834Q); observed = cell-free assay; value = 100%
target = Serine/threonine-protein kinase pim-1 (PIM1, Homo sapiens, UniProt P11309); observed = cell-free assay; value = 100%
target = Receptor-type tyrosine-protein kinase FLT3 (FLT3, Homo sapiens, UniProt P36888, N841I); observed = cell-free assay; value = 100%
target = Tyrosine-protein kinase receptor TYRO3 (TYRO3, Homo sapiens, UniProt Q06418); observed = cell-free assay; value = 70%

Block 3 — observed: enzyme activity; mode: inhibitor; concentration: 0.5 µM; relative to: control; quantity: remaining activity
Target: Protein kinase C zeta type (PRKCZ, Homo sapiens, UniProt Q05513)
Target sequence (Q05513 1-592): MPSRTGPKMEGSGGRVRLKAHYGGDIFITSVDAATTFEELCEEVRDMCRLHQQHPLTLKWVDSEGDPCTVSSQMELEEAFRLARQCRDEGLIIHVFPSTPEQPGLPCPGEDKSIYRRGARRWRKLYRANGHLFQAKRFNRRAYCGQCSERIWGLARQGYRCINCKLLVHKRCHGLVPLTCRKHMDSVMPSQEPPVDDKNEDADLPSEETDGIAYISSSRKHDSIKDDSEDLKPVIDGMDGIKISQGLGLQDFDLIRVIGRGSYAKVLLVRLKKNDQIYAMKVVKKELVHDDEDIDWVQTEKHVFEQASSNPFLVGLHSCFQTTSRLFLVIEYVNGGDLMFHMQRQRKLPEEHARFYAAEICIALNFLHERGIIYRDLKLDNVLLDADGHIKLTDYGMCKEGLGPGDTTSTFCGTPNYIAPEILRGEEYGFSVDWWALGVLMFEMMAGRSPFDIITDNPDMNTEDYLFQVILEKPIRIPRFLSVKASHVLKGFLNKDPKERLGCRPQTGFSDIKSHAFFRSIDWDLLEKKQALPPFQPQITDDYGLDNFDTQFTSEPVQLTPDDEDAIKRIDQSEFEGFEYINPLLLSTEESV
Structure (SMILES) = CCN(CC)CCNC(=O)c1c(C)[nH]c(/C=C2\C(=O)Nc3ccc(Cl)cc32)c1C; value = 104%
Structure (SMILES) = Cc1nc2cc3nc(-c4cccs4)cnc3cc2n1C; value = 95.6%
Structure (SMILES) = CCN(CC)C(=O)c1ccc(Nc2nc(OCC3CCCCC3)c3[nH]cnc3n2)cc1; value = 95.8%
Structure (SMILES) = Ic1cccc(CSc2nnc(-c3ccncc3)o2)c1; value = 96.1%
Structure (SMILES) = O=C(Nc1cccc(Nc2nccc(Nc3cccc(C(F)(F)F)c3)n2)c1)C1CC1; value = 98.8%
Structure (SMILES) = N#Cc1c(NC(=O)c2cccc3ccccc23)sc2c1CCCC2; value = 102%
Structure (SMILES) = O=C1c2ccccc2-c2n[nH]c3cccc1c23; value = 98.3%
Structure (SMILES) = CN([C@@H](Cc1ccc(OS(=O)(=O)c2cccc3cnccc23)cc1)C(=O)N1CCN(c2ccccc2)CC1)S(=O)(=O)c1cccc2cnccc12; value = 101%
Structure (SMILES) = COc1cc2ncnc(Nc3cccc(Cl)c3)c2cc1OC; value = 102%
Structure (SMILES) = Cc1cn(-c2cc(NC(=O)c3ccc(C)c(Nc4nccc(-c5cccnc5)n4)c3)cc(C(F)(F)F)c2)cn1; value = 87%
Structure (SMILES) = CCN(CC)CCNC(=O)c1c(C)[nH]c(/C=C2\C(=O)Nc3ccc(F)cc32)c1C; value = 91.7%
Structure (SMILES) = O=c1cc(-c2cccc3c2Sc2ccccc2S3)oc(N2CCOCC2)c1; value = 102%

Single results of other studies
Compound = CC(C)n1cnc(-c2ccc(F)cc2)c1-c1ncc(C(=O)Nc2ccc(N3CCN(C)CC3)cc2)[nH]1; technique = phase 2a trial; host = idiopathic pulmonary fibrosis patients; dose = dose not given; notes = grade 1, arms pooled; quantity = patients with carbon dioxide decreased; value = 1%
